Published values of several laboratories.
Lines come from different studies, so protocols differ. ± marks the error that the study gave.

CCCCCCCCCCCCC(=O)O.O=C1CCCC2C3CCCN4CCCC(CN12)C34 (stereo not shown)  critical micelle concentration (water; concentration not given, 303.15 K): 0.00248 mol/kg
CCN(Cc1ccccc1)C(=O)CCc1nc(CN2CCN(C(=O)Cc3ccc(OC)c(OC)c3)CC2)no1  concentration (rat, brain; intravenous, 1 mg/kg, 5 min): 7.4 ng/g
CCCCCCCCCCCC(=O)C(C)C(=O)N1CCC[C@H]1C(=O)NC(C)(C)C(=O)NC(C)(C)C(=O)NC(C)(C)C(=O)N[C@](C)(CC)C(=O)NCCC(=O)N[C@@H](C)C(=O)N[C@](C)(CC)C(=O)N[C@@H](C)C(=O)N[C@@H](CC(C)C)C(=O)N[C@](C)(CC)C(=O)NCCC(=O)N[C@@H](C)C(=O)N[C@](C)(CC)C(=O)NCCC(=O)N[C@@H](C)C(=O)NC(C)(C)C(=O)NC(C)(C)C(=O)NC(C)(C)C(=O)N[C@@H](C)C(=O)N[C@@H](CC(=O)O)C(=O)O (stereo partly shown)  remaining compound (LC-MS; 50% pooled human serum; 40 µM, 12 h, pH 7.5, 37 °C): ~27%
CN(C)C(CNC(=O)Nc1cc(C(F)(F)F)ccc1N1CCOCC1)c1ccncc1 (stereo not shown)  serum sodium (mouse, serum; intraperitoneal, 120 mg/kg single dose): 145 mmol/L
CCCC[C@H]1C(=O)N(C)[C@@H](CCCC)C(=O)N[C@@H](CCCNC(=O)CN2CCN(CC(=O)O)CCN(CC(=O)O)CCN(CC(=O)O)CC2)C(=O)N[C@H](C(=O)NCC(N)=O)CSCC(=O)N[C@@H](Cc2ccc(O)cc2)C(=O)N(C)[C@@H](C)C(=O)N[C@@H](CC(N)=O)C(=O)N2CCC[C@H]2C(=O)N[C@@H](Cc2c[nH]cn2)C(=O)N[C@@H](CC(C)C)C(=O)N(C)CC(=O)N[C@@H](Cc2c[nH]c3ccccc23)C(=O)N[C@@H](CO)C(=O)N[C@@H](Cc2c[nH]c3ccccc23)C(=O)N1C [gallium-68 labelled]  tumour uptake (static PET; NOD/SCID mice, CHO-hPD-L1 xenograft, CHO-hPD-L1 tumour; intravenous, 1 h post injection): 5.93 ± 0.45 %ID/g
COc1cc(NC(=O)C(=O)c2c(C)n(Cc3ccc(Cl)cc3)c3ccc(C)cc23)ccn1  Vz (cynomolgus monkey, both sexes, plasma; intravenous, 1 mg/kg): 18.6 L/kg
[3H]c1sc(C)nc1C=C(C)C1CC2C(CCCC(C)C(O)C(C)C(=O)C(C)(C)C(O)CC(=O)O1)N2CCO (stereo not shown)  plasma concentration (CD2F1 mice, plasma; intravenous, 2.2 nmol/kg, 2 h): 55.2 ± 4.7 ng/mL
CC[C@@]1(O)C(=O)OCc2c1cc1n(c2=O)Cc2c-1nc1cc(F)c(C)c3c1c2[C@@H](NC(=O)CCCN)CC3  Peff (PAMPA; GIT-0 lipid membrane; 5 µM, 4 h, pH 7.4, 25 °C): < 0.1 ×10⁻⁶ cm/s
CC[C@H](C)C(=O)N1CCC(NC(=O)Nc2ccc(OC(F)(F)F)c(F)c2)CC1  subjects with moderate TEAE (healthy volunteers; oral, 8 mg single dose, 14 (unit not given)): 0%
COc1cc2c3c(c4cc(OC)c(OC)cc4c2cc1OC)C[N+]1([O-])CCCCC1C3 (stereo not shown)  CC50 (swine cells; 24 (unit not given)): > 50 µM

A few entries again:
CCN(Cc1ccccc1)C(=O)CCc1nc(CN2CCN(C(=O)Cc3ccc(OC)c(OC)c3)CC2)no1  concentration (rat, brain; intravenous, 1 mg/kg, 5 min): 7.4 ng/g
